Experimental data collected from several papers.
Every numbered part comes from another study and shows a few of its results, in no order.

Study 1 — species: mouse; matrix: microsomes or S9; concentration: 2 µM; time: 0.5 h
Compound | remaining compound
CC(C)C(=O)Nc1ccc(N2CCCCC2C)cc1 (centres unmarked) | 24.3%
Cc1cc2c(cc1CNC1(c3ccccc3F)CCCC1)OCO2 | 0.0141%
COc1ccc(CCN2CCC(CNS(=O)(=O)c3ccc(-c4ccc(=O)[nH]n4)s3)CC2)cc1 | 66.1%
COc1ccccc1Cn1c(C(=O)NCC2CC2)cc2sccc21 | 0.0537%
CC1CCN(C=C(S(=O)(=O)c2ccccc2)S(=O)(=O)c2ccccc2)CC1 | 1.7%
Cc1ccc(OCCCCN(C)C)c(C(C)(C)C)c1 | 2.66%
O=C(c1ccc(Cn2ccn3nc4c(c3c2=O)CCCC4)cc1)N1CCN(c2ccccc2F)CC1 | 5.21%
CCN(CC)C(=O)c1cn(C2CCC23CCN(S(=O)(=O)CC)CC3)nn1 (centres unmarked) | 65.8%
CCNc1nc(NC(C)(C)C)nc(Oc2ccc(=O)n(CC)n2)n1 | 16.2%
Cc1cnc(NC2CC(C)OC(C)C2)nc1NC1CC(C)OC(C)C1 (centres unmarked) | 98.2%
CC1(C)CC(n2[nH]c(=O)c3c2N=C(O)CSC3C2CCCCC2)CCO1 (centres unmarked) | 94.3%
O=C1CCC(C(=O)N2CCOC(c3ccsc3)C2)n2cccc21 (centres unmarked) | 59.6%
CC(c1cnccn1)N1CCN(S(C)(=O)=O)c2ccccc2C1 (centres unmarked) | 15.7%

Study 2 — observed: binding; technique: radioligand binding; concentration: 10 µM
Target: 5-hydroxytryptamine receptor 6 (HTR6, Homo sapiens, UniProt P50406)
Chain of UniProt P50406 (whole entry, looked up): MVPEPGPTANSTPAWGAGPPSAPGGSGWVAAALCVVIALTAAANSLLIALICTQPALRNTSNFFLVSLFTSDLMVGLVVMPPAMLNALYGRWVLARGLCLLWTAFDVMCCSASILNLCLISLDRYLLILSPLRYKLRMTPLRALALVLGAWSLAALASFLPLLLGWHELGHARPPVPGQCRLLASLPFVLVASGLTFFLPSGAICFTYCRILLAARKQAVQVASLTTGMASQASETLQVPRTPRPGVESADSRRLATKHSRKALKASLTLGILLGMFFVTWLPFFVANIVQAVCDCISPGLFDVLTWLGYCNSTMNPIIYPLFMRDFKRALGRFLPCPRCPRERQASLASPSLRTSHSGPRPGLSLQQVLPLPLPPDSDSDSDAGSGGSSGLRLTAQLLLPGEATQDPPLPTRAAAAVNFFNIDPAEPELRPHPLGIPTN
Structure (SMILES) | inhibition [%]
COc1cc(-c2cn(C3CCc4ccccc4N(CC(F)(F)F)C3=O)nn2)ccc1-n1ccc(C)n1 (centres unmarked) | -1.39
CC(=O)Nc1nc(CN2CCC[C@H](Cc3cc(C)nc(C)c3)C2)cs1 | 25.6
Cc1nc(Cc2cccc(C(F)(F)F)c2)sc1-c1ccc(C(N)=O)nc1 | 2.42
Cc1nccc(COC(=O)N2C[C@@H]3[C@@H](CNC(=O)c4ccc5[nH]nnc5c4)[C@@H]3C2)n1 | 26.1
O=C(O)c1cc(-c2ccc(C3CCNCC3)cc2)c2ccc(-c3ccc(C(F)(F)F)cc3)cc2c1 | 5.62
Nc1c(C(=O)NCc2ccc(C(=O)NCCCC3CCCCC3)cc2)cnn1-c1ccccc1 | 26.8
COc1nc2ccc([C@@](O)(c3ccccc3)C3CCN(C(C)=O)CC3)cc2c(Cl)c1Cc1ccc(-n2cccn2)cc1 | 8.8
C[C@H](NC(=O)c1cnc2n1[C@](C)(Cc1ccc(C#N)cc1)C(=O)N2c1cc(Cl)c(F)c(Cl)c1)C(=O)NC1(c2ccccn2)CC1 | 6.67
O=C1CCc2cc(Nc3cc(OC4CCOCC4)c([N+](=O)[O-])cc3Cl)ccc2N1 | -2.48
CN([C@@H]1CCc2c(CC(=O)O)c3cc(S(C)(=O)=O)ccc3n2C1)S(=O)(=O)c1ccc(F)cc1 | -5.39
CC(=O)Nc1c(F)cc(C(=O)N[C@H]2CC[C@H](O)CC2)cc1O[C@@H](C)c1ccccc1 | 11.4
CCCOc1ccc([C@H]2[C@H](C(=O)O)[C@@H](c3ccc4c(c3)OCO4)CN2CC(=O)Nc2c(CC)cccc2CC)cc1 | -17.8
CN1C(=O)[C@@H](N2CCc3cn(Cc4ccccc4)nc3C2=O)COc2ccccc21 | -3.95

Study 3 — cell line: HaCaT; concentration: 100 µM; time: 36 h
SMILES | viability [%]
CCOC(=O)C1=C(COCCN)NC(C)=C(C(=O)OC)[C@@H]1c1ccccc1Cl | 6.52
N=C(N)/N=C(\N)N1CCOCC1 | 97.5
Cc1cn(-c2cc(NC(=O)c3ccc(C)c(Nc4nccc(-c5cccnc5)n4)c3)cc(C(F)(F)F)c2)cn1 | 5.79
CC(NCCC(c1ccccc1)c1ccccc1)c1ccccc1 (centres unmarked) | 4.62
COC(=O)c1ccc2c(c1)NC(=O)/C2=C(\Nc1ccc(N(C)C(=O)CN2CCN(C)CC2)cc1)c1ccccc1 | 112
C#C[C@]1(O)CC[C@H]2[C@@H]3CCC4=Cc5oncc5C[C@]4(C)[C@H]3CC[C@@]21C | 5.4
CN(C)CC/C=C1/c2ccccc2COc2ccc(CC(=O)O)cc21 | 90.9
N[C@@H](CSCCCO)C(=O)O | 94.9
COc1cc2c(cc1OC)CC(=O)N(CCCN(C)C[C@H]1Cc3cc(OC)c(OC)cc31)CC2 | 93.2
Nc1nnc(-c2cccc(Cl)c2Cl)c(N)n1 | 89
C[C@@H](O)[C@H]1C(=O)N2C(C(=O)O)=C(S[C@@H]3CN[C@H](CNS(N)(=O)=O)C3)[C@H](C)[C@H]12 | 108
O=C(O)Cc1ccc(-c2ccccc2)cc1 | 99.3
Nc1ncnc2c1ncn2[C@@H]1O[C@H](CO)[C@@H](O)[C@@H]1O | 49.6
Nc1nc(CC(=O)Nc2ccc(CCNC[C@H](O)c3ccccc3)cc2)cs1 | 69.8

Mixed results
Structure (SMILES) | species | matrix | route | dose | endpoint | value
O=C1CCC(N2Cc3cc(C4CCN(Cc5ccccc5)CC4)ccc3C2=O)C(=O)N1 (centres unmarked) | Sprague Dawley rats, male | plasma | intravenous | 1.0 mg/kg | steady-state volume of distribution | 12.6 L/kg

A few entries again (study 1):
Compound | remaining compound
CC(c1cnccn1)N1CCN(S(C)(=O)=O)c2ccccc2C1 (centres unmarked) | 15.7%
O=C(c1ccc(Cn2ccn3nc4c(c3c2=O)CCCC4)cc1)N1CCN(c2ccccc2F)CC1 | 5.21%
CCN(CC)C(=O)c1cn(C2CCC23CCN(S(=O)(=O)CC)CC3)nn1 (centres unmarked) | 65.8%
CC1CCN(C=C(S(=O)(=O)c2ccccc2)S(=O)(=O)c2ccccc2)CC1 | 1.7%
Cc1cnc(NC2CC(C)OC(C)C2)nc1NC1CC(C)OC(C)C1 (centres unmarked) | 98.2%
